Measured values from different studies.
Each line is one published result; not all experiments were run side by side. Several values in a cell are separate wells, animals, samples, runs or records. ± marks the error that the study gave.
Chain of UniProt Q8NEB9 (whole entry, looked up): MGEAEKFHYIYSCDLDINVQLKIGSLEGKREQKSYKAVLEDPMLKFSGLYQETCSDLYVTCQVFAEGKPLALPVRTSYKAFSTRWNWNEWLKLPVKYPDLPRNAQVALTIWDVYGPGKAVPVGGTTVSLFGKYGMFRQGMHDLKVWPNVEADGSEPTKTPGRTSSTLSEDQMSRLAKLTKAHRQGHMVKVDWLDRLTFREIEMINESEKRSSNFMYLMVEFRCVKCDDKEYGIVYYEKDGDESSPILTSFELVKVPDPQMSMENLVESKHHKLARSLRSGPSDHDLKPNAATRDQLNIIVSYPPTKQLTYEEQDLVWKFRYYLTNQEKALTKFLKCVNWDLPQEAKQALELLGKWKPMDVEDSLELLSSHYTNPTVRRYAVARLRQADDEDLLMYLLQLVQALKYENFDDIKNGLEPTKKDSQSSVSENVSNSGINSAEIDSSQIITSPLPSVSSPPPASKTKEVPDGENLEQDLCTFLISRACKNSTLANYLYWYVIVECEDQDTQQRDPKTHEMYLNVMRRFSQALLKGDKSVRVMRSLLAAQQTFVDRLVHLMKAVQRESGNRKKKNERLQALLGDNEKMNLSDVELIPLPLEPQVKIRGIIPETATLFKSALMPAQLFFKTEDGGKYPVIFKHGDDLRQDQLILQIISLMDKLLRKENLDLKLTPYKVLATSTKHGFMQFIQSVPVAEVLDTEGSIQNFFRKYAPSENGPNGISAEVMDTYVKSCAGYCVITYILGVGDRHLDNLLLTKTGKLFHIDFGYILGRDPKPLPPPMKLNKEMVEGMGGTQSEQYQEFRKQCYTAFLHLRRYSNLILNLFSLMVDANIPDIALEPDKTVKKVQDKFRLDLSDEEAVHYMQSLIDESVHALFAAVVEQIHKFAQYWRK
Chain of UniProt P06213 (whole entry, looked up): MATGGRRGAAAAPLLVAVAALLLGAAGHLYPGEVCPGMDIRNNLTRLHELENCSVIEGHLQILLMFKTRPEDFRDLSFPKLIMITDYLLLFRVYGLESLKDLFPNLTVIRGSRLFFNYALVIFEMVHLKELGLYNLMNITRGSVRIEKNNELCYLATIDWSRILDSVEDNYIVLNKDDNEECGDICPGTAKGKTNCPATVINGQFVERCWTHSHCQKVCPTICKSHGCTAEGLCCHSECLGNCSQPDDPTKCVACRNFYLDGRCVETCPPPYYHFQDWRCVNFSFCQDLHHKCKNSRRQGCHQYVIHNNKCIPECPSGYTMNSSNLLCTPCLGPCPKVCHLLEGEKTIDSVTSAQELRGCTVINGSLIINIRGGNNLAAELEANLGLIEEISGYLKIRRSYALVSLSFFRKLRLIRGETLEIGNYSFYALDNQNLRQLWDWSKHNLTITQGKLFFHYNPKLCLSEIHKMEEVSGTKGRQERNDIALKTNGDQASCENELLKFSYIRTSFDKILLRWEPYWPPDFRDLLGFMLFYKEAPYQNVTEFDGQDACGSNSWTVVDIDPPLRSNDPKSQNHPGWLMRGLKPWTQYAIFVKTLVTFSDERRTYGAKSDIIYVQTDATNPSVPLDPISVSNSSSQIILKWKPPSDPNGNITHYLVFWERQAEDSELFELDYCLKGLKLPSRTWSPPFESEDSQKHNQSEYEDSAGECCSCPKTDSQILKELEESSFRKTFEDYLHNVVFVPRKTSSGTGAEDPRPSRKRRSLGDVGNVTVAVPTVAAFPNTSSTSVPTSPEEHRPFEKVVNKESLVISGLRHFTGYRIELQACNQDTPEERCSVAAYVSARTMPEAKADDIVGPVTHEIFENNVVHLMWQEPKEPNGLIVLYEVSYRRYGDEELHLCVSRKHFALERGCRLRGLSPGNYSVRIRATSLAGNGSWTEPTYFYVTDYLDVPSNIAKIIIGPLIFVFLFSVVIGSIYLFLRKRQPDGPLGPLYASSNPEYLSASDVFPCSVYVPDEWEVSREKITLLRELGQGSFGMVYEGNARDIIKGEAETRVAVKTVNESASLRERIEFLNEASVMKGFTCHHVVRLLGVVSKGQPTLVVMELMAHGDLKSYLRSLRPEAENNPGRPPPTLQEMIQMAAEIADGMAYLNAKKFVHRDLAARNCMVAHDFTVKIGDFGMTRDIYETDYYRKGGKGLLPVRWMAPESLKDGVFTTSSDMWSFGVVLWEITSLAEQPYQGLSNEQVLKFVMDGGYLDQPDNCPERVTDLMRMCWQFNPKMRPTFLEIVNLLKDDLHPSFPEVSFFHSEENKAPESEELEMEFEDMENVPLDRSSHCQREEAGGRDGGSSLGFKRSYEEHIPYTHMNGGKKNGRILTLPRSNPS
Chain of UniProt P21917 (whole entry, looked up): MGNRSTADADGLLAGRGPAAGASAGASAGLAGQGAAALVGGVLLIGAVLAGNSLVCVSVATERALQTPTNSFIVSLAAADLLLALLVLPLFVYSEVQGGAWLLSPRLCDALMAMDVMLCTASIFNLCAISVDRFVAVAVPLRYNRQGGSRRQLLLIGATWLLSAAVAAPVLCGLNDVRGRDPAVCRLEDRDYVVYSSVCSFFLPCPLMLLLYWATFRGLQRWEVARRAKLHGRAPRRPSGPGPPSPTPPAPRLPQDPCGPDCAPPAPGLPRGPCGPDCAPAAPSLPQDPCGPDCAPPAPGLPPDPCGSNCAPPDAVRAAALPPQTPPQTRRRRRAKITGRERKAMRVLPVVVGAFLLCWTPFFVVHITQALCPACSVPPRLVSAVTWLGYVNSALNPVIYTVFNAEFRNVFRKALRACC

Structure (SMILES) | target or system | test | system | setting | how to read | endpoint | value
CCc1cc(OCCOCCN(C)C)ccc1Cl | – | locomotor activity in dark | zebrafish larvae, 7 dpf | 10 µM, minute 3, dark phase | – | larval motion | 2.3 ± 1.2 pixels/frame
Cc1nn(-c2cccc(N)c2)c(=O)c2cnc(Nc3ccc(N4CCNCC4)cc3)nc12 | Insulin receptor (INSR, Homo sapiens, UniProt P06213) | kinase activity, inhibitor, SelectScreen kinase profiling | – | – | – | IC50 | > 10000 nM
CC(C)c1cnc(-c2cc(Cl)ccc2F)cc1Nc1ccncc1C(=O)NC(CO)CO | – | – | mice, MC-38 tumour, tumour | 10 mg/kg twice daily, 96 h, 4 day, then holiday, ×7 | relative to: CD45+ | monocytic MDSC | 12.4%
Cc1cc(OCCOCCN(C)C)cc(C(C)C)c1 | – | – | zebrafish larvae, 7 dpf | 10 µM, minute 4 | – | larval motion | 11.2 ± 1.3 pixels/frame
COC1CN([C@H]2CC[C@H]([C@@]3(C)Oc4c(Cl)cc(C(=O)NCc5c(SC)cc(C)[nH]c5=O)c(C)c4O3)CC2)C1 | – | RNA-seq, measured: CYSTM1 mouse homolog | mouse, HT-1376 xenograft, whole blood | dose not given | relative to: vehicle | log2 fold change | 5.05
CCN(CC)CC(=O)Nc1cccc(-n2cc(-c3ccc4ccc(-c5cn(-c6cccc(NC(=O)CN(CC)CC)c6)nn5)cc4c3)nn2)c1 | Phosphatidylinositol 3-kinase catalytic subunit type 3 (PIK3C3, Homo sapiens, UniProt Q8NEB9) | enzyme activity, inhibitor | – | – | – | IC50 | > 10000 nM
CC(C)C[C@H](NC(=O)[C@@H](CCCCNC(=O)[C@@H](Cc1ccccc1)NC(=O)CCCCCNC(=O)CN1CCN(CC(=O)O)CCN(CC(=O)O)CCN(CC(=O)O)CC1)NC(=O)[C@H](Cc1ccc(O)cc1)NC(=O)[C@H](CO)NC(=O)[C@H](Cc1c[nH]c2ccccc12)NC(=O)[C@H](Cc1c[nH]cn1)NC(=O)[C@@H]1CCC(=O)N1)C(=O)N[C@@H](CCCNC(=N)N)C(=O)N1CCC[C@H]1C(=O)NCC(N)=O [indium-111 labelled] | – | – | female athymic nude mice, brain | intravenous, 0.037 MBq, 4 h | – | tissue uptake | 0.01 %ID/g
COc1cc2c(cc1OC)C1Cc3ccc(OC)c(OC)c3C[NH+]1CC2.[Cl][Fe-]([Cl])([Cl])[Cl] (stereo not drawn) | – | – | – | 1.0 mg/mL, 30 min, 25 °C | – | DPPH scavenging | 46.9%
CNS(=O)(=O)Nc1nccc(Cc2c(C)c3ccc(Oc4ncccc4F)cc3oc2=O)c1F | MKN-45 | cell viability | – | 7 days | – | IC50 | 28.8 nM
CN1CCC[C@]1(C)/C=C/S(=O)(=O)NC(=O)Nc1c2c(cc3c1CCC3)CCC2 | – | – | human, whole blood ex vivo | 100 mg twice daily, day 14, 3 h, multiple ascending dose, with: LPS and ATP | – | IL-18 inhibition | 97.6%
CC(C)C[C@@H](NC(=O)[C@@H](CC(C)C)NC(=O)[C@@H](CC(=O)O)NC(=O)[C@@H](CC(C)C)NC(=O)[C@@H](CC(C)C)NC(=O)[C@@H](CC(C)C)NC(=O)[C@H](NC(=O)[C@@H](CC(=O)O)NC(=O)[C@H](NC(=O)[C@H]1CCCN1C(=O)[C@@H](Cc1ccccc1)NC(=O)[C@@H](CC(C)C)NC(=O)[C@@H](CC(C)C)NC(=O)[C@@H](CC(=O)O)NC(=O)[C@@H](CC(C)C)NC(=O)[C@@H](Cc1ccc(O)cc1)NC(=O)[C@@H](C)NC(=O)[C@@H](CCCNC(=N)N)NC(=O)[C@@H](Cc1c[nH]c2ccccc12)NC(=O)[C@H]1CCCN1C(=O)[C@@H](CC(N)=O)NC(=O)[C@@H](CCC(N)=O)NC(=O)[C@@H](CC(=O)O)NC(=O)[C@@H](CC(=O)O)NC(=O)[C@@H](CSC1CC(=O)N(CCNC(=O)CN2CCN(CC(=O)O)CCN(CC(=O)O)CC2)C1=O)NC(=O)[C@@H](C)N)[C@H](C)O)[C@H](C)O)C(=O)N[C@H](Cc1c[nH]c2ccccc12)C(=O)O (stereo partly drawn) [copper-64 labelled] | – | – | C57BL/6 mice, female, B16-F10 melanoma, blood | intravenous, 24 h | – | tissue uptake | 6.37 %ID/g
Cc1cc(C(C)(C)C)ccc1OCCOCCN(C)C | – | locomotor activity in dark | zebrafish larvae, 7 dpf | 10 µM, minute 1, dark phase | – | larval motion | 5.8 ± 0.7 pixels/frame
CCCC[C@H](NC(=O)COCCOCCNC(=O)CN1CCN(CC(=O)O)CCN(CC(=O)O)CC1)C(=O)N[C@H]1CC(=O)NCCCC[C@@H](C(N)=O)NC(=O)[C@H](Cc2c[nH]c3ccccc23)NC(=O)[C@H](CCCNC(=N)N)NC(=O)[C@@H](Cc2ccccc2)NC(=O)[C@H](Cc2c[nH]cn2)NC1=O [technetium-99m labelled] | – | – | C57 mouse, muscle | intravenous, 0.037 MBq, 0.5 h | – | tissue uptake | 0.93 ± 0.2 %ID/g
Cc1cn(CC(=O)N(CC(=O)N[C@H]2COC[C@@H]2N(CC(=O)NCCOCCOCC(N)=O)C(=O)Cn2cnc3c(N)ncnc32)[C@H]2COC[C@@H]2NC(=O)CN(C(=O)Cn2cnc3c(N)ncnc32)[C@H]2COC[C@@H]2NC(=O)CN(C(=O)Cn2cnc3c(=O)[nH]c(N)nc32)[C@H]2COC[C@@H]2NC(=O)CN(C(=O)Cn2cc(C)c(=O)[nH]c2=O)[C@H]2COC[C@@H]2NC(=O)CN(C(=O)Cn2cnc3c(=O)[nH]c(N)nc32)[C@H]2COC[C@@H]2NC(=O)CN(C(=O)Cn2cc(C)c(=O)[nH]c2=O)[C@H]2COC[C@@H]2NC(=O)CN(C(=O)Cn2cnc3c(N)ncnc32)[C@H]2COC[C@@H]2NC(=O)CN(C(=O)Cn2cnc3c(=O)[nH]c(N)nc32)[C@H]2COC[C@@H]2N)c(=O)[nH]c1=O | – | UV melting | RNA duplex with T·G mismatch | pH 7.2, 1 µM each strand | – | Tm | 57.5 °C
CN(C)CCOCCOc1ccc(Cl)c(Cl)c1 | – | – | zebrafish larvae, 7 dpf | 10 µM, minute 6 | – | larval motion | 4.3 ± 1.3 pixels/frame
Nc1ncc(-c2cc(-c3cnn(CC(F)(F)F)c3)ncc2F)nc1C(=O)NC1CNCC(F)C1 (stereo not drawn) | PCTK3 | KINOMEscan | – | 1 µM | relative to: DMSO control | remaining binding | 100%
Cc1cccc(C)c1CNc1cc(C(=O)N2CCC2)cn2c(C)c(C)nc12 | – | histamine-stimulated acid secretion | pylorus-ligated rat | oral, 2 mg/kg, with: histamine | – | total acid output | 34.4 ± 8.1 µEq/3 h
Cn1ncc2cc(-c3cncc(Cl)c3N3CCC4(CCNC4=O)CC3)ccc21 | LS174T | gene expression, microarray, measured: CARD6 mRNA | – | concentration not given, 4 h | relative to: untreated cells | log2 fold change | -1.47

Structure (SMILES) | target or system | test | system | setting | how to read | endpoint | value
O=C(CCN1CCN(C/C=C/c2ccccc2)CC1)Nc1ccccc1F | – | – | zebrafish larvae, 7 dpf | 10 µM, minute 4 | – | larval motion | 7.2 ± 1.9 pixels/frame
Cc1ncsc1-c1ccc(C(C)NC(=O)C2CC(O)CN2C(=O)C(NC(=O)CCCCCCCCCCN2CCCC(Nc3ncc(Cl)c(Nc4ccccc4S(=O)(=O)C(C)C)n3)C2)C(C)(C)C)cc1 (stereo not drawn) | 22Rv1 | RNA-seq, measured: TRIP6 mRNA | – | concentration not given | relative to: DMSO | log2 fold change | -2.31
CC(C)OC(=O)[C@H](CO)NCc1cc(Cl)c(OCc2cccc(-c3ccccc3)c2Br)cc1OCc1cccnc1 | – | – | hPD-L1 MC-38 tumour, humanised hPD-1 C57BL/6 mouse | oral, 10 mg/kg × 21, day 20 | – | tumour volume | 1000 ± 586 mm³
Cc1cc(C)cc(NC(=O)CCN2CCCCCC2)c1 | – | – | zebrafish larvae, 7 dpf | 10 µM, minute 2 | – | larval motion | 23.8 ± 2 pixels/frame
COc1cc(O)ccc1CCC(c1ccc(O)cc1)c1cc2c(c(C)c1O)OC(c1ccc(O)cc1)CC2 (mixture of isomers) | – | – | human blood | 10 µM, with: A23187 | – | 14-HDHA level | 560 ± 142 pg/mL
CC(=O)[O-].O.[Cu+2].[O-]c1ccc(Br)cc1C=NCCN1CCOCC1 | – | DPPH radical scavenging | – | 80 µM | – | inhibition | 31.9%
Cn1ncc2cc(CN3CCC(F)(F)C(COc4ccc(C#N)c(F)c4)C3)ccc21 (stereo not drawn) | D(4) dopamine receptor (DRD4, Homo sapiens, UniProt P21917) | ligand displacement, radioligand | – | – | – | Ki | 3.8 nM
Cc1cnc2nc1Nc1cccc(c1)COC/C=C/COCc1cc(ccc1OCCN1CCOCC1)N2 | – | – | BALB/c mice rhEPO-induced polycythemia, bone marrow | 100 mg/kg | – | CD71/Ter119 cells | 13.8% and 10.5% and 13.4% and 12.6% and 8.17%
CN1CCCNC(=O)c2cccc(c2)C(=O)NCCCN(C)CCCNc2cccc3c2C(=O)c2cccc(c2C3=O)NCCC1 | – | – | SAS xenograft, KSN/Slc nude mice | dose not given, 240 h (day 10), group mean | – | tumour volume | 297 mm3
COc1ccc(N2CCN(CC(O)COc3ccc4ccccc4c3)CC2)cc1 (stereo not drawn) | – | – | zebrafish larvae, 7 dpf | 10 µM, minute 2 | – | larval motion | 10.8 ± 1.4 pixels/frame
CCC(=O)N[C@@H](C)C(=O)OCC(=O)N[C@@H](C)C(=O)O | – | – | water | pH 7, 37 °C | – | chain scission rate constant | 0.0134 h⁻¹
C=CC(=O)Nc1cccc(Cn2ncc3cnc(Nc4cnn(CCOC)c4)nc32)c1 | human IKK-beta | KINOMEscan | – | 100 nM | relative to: control | binding | 98%
Cc1ccc(C)c(OCC(O)CN2CCN(c3cc(Cl)ccc3C)CC2)c1 (stereo not drawn) | – | – | zebrafish larvae, 7 dpf | 10 µM, minute 6 | – | larval motion | 0.5 ± 0.3 pixels/frame
CCCC[C@H](NC(=O)CCCCCCCNC(=O)CN1CCN(CC(=O)O)CCN(CC(=O)O)CC1)C(=O)N[C@H]1CC(=O)NCCCC[C@@H](C(N)=O)NC(=O)[C@H](Cc2c[nH]c3ccccc23)NC(=O)[C@H](CCCNC(=N)N)NC(=O)[C@@H](Cc2ccccc2)NC(=O)[C@H](Cc2c[nH]cn2)NC1=O [technetium-99m labelled] | – | – | C57 mouse, stomach | intravenous, 0.037 MBq, 4 h | – | tissue uptake | 0.59 ± 0.41 %ID/g
Cc1cn(CC(=O)N(CC(=O)N[C@H]2CCC[C@@H]2N(CC(=O)N[C@H]2COC[C@@H]2N(CC(=O)N[C@H]2COC[C@@H]2N(CC(=O)N[C@H]2COC[C@@H]2N(CC(=O)NCCOCCOCC(N)=O)C(=O)Cn2cnc3c(N)ncnc32)C(=O)Cn2cc(C)c(=O)[nH]c2=O)C(=O)Cn2cnc3c(N)ncnc32)C(=O)Cn2cnc3c(=O)[nH]c(N)nc32)[C@H]2CCC[C@@H]2NC(=O)CN(C(=O)Cn2cnc3c(=O)[nH]c(N)nc32)[C@H]2CCC[C@@H]2NC(=O)CN(C(=O)Cn2cc(C)c(=O)[nH]c2=O)[C@H]2COC[C@@H]2NC(=O)CN(C(=O)Cn2cnc3c(N)ncnc32)[C@H]2COC[C@@H]2NC(=O)CN(C(=O)Cn2cnc3c(=O)[nH]c(N)nc32)[C@H]2COC[C@@H]2N)c(=O)[nH]c1=O | – | UV melting | DNA duplex with T·G mismatch | pH 7.2, 1 µM each strand | – | Tm | 64.2 °C
CN(C)C(=O)c1ccnc(N2Cc3cn(Cc4ccc(F)cc4F)nc3C2)n1 | – | – | cuprizone-diet mice, rotarod test | oral, 5 mg/kg | – | rotarod speed at fall | 15 RPM and 17 RPM and 12 RPM and 14 RPM and 24 RPM
CCCCCc1ccc(S(=O)(=O)N2CC2C(=O)OC)cc1 (stereo not drawn) | – | – | mouse, Lewis lung carcinoma | intraperitoneal, 5 mg/kg, 16 doses, day 15 | – | tumour growth inhibition | 67%
COc1cc(N2CCN(C(=O)C3CCCN3)CC2)ccc1Nc1ncc(Cl)c(Nc2ccccc2P(C)(C)=O)n1 (stereo not drawn) | – | – | nude mice, NCI-H3122 xenograft | intraperitoneal, 10 mg/kg every other day, day 13 | – | tumour volume | 59.2 mm3 and 74.9 mm3 and 107 mm3 and 77.1 mm3 and 81.5 mm3

A few entries again:
Structure (SMILES) | target or system | test | system | setting | how to read | endpoint | value
Cc1cn(CC(=O)N(CC(=O)N[C@H]2COC[C@@H]2N(CC(=O)NCCOCCOCC(N)=O)C(=O)Cn2cnc3c(N)ncnc32)[C@H]2COC[C@@H]2NC(=O)CN(C(=O)Cn2cnc3c(N)ncnc32)[C@H]2COC[C@@H]2NC(=O)CN(C(=O)Cn2cnc3c(=O)[nH]c(N)nc32)[C@H]2COC[C@@H]2NC(=O)CN(C(=O)Cn2cc(C)c(=O)[nH]c2=O)[C@H]2COC[C@@H]2NC(=O)CN(C(=O)Cn2cnc3c(=O)[nH]c(N)nc32)[C@H]2COC[C@@H]2NC(=O)CN(C(=O)Cn2cc(C)c(=O)[nH]c2=O)[C@H]2COC[C@@H]2NC(=O)CN(C(=O)Cn2cnc3c(N)ncnc32)[C@H]2COC[C@@H]2NC(=O)CN(C(=O)Cn2cnc3c(=O)[nH]c(N)nc32)[C@H]2COC[C@@H]2N)c(=O)[nH]c1=O | – | UV melting | RNA duplex with T·G mismatch | pH 7.2, 1 µM each strand | – | Tm | 57.5 °C
CN(C)CCOCCOc1ccc(Cl)c(Cl)c1 | – | – | zebrafish larvae, 7 dpf | 10 µM, minute 6 | – | larval motion | 4.3 ± 1.3 pixels/frame
